Experimental data pooled from the literature.
A part holds a random share of what one study measured.

Set 1 — technique: protein-binding microarray; form: double-stranded DNA, one strand shown; sample: in vitro; concentration: 250 nM; notes: 60-bp whole probe; together with: salmon DNA 0.4 mg/ml; relative to: random background probes; reading: higher = stronger binding; shared flanks, not repeated: GCCTAGCAC … GTCTTGATTCGCTTGACGCTGCTG
Target: Interferon regulatory factor 5, full length, phosphomimetic (IRF5, Homo sapiens, UniProt Q13568-2, residues 1-514, K96S/S451D/S453D/S456D/S462D)
Sequence | log fluorescence [z-score]
GACGTTTTCGGGTATCGGGACGTGCTA | 6.45
GACGATCTCAGTTTCGAGTCGTGCTAG | 5.48
TTAGAAATCAGTTTCGATTAGTGCTAG | 10.2
TTAGGTTTCGACTTTTGGTTAGTGCTA | 7.24
GACGATTTCAGACTGGAGTCGTGCTAG | 0.221
TCAATGATCTTCCTTCATACTGTGCTA | 0.499
GACTATCTCAGTTTCGAGACGTGCTAG | 5.11
TTAGAACTGAGTATCGATTCGTGCTAG | 5.62
TCAATTTTCTGAATGCTACTGTGCTAG | 1.04
TCTTTTTCCTAATTGAACCCGTGCTAG | 0.888
GACGGTCTCCTTCTCCAGACGTGCTAG | -0.375
GACGATTTCAGACTGGACACGTGCTAG | 0.3
GAGGAACTGGGGACTGGAGACGTGCTA | -0.361
GACGGTATCATTTTCCTGACGTGCTAG | 1.29
GACGGGCTGGGGTTTCGGGACGTGCTA | 0.872
TCATCTCTGCCACTCAGACTGTGCTAG | 0.0388

Set 2 — technique: competition protein-binding microarray; form: double-stranded DNA, one strand shown; sample: in vitro; concentration: 2 µM; together with: Pho4 competitor, 0.05 µM; reading: higher = stronger binding; shared flanks, not repeated: … GTCTTGATTCGCTTGACGCTGCTG
Target: Centromere-binding protein 1, full length, His-tagged (CBF1, Saccharomyces cerevisiae, UniProt P17106, residues 1-351)
Sequence of UniProt P17106 (whole entry, looked up): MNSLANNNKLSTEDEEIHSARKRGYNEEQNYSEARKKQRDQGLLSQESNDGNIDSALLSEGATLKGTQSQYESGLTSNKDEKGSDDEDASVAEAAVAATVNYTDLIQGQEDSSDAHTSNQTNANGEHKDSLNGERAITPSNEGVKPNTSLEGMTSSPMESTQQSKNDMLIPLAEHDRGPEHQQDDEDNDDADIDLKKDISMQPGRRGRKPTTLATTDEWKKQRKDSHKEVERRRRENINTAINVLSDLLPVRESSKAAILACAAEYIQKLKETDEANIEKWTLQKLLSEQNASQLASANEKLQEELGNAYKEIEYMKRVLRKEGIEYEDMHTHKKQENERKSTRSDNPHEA
Notes: whole 60-bp probe, lowest competitor level
Sequence | fluorescence intensity [a.u.]
CATACCCAACCTTGGAGAGTGGGTGAAGATATTTGT | 75.7
TGAAAAATTTTCGGTAGCGTGCTTTAGCCGGTATAA | 81.4
AATCGTAGGATAGGTTACATGATAATTGCAATAGAT | 82.8
AAATTACTAAGTTGTTAGGTGGGTGACGCCGTATGA | 75.6
CGTCCTAGTGATTGTAACGTGGGTGCCATGAGGAAG | 109
TAATCAAGCTTTCGGCACGTGGTGAGCCAAGTTGTG | 1570
GCGACTATGGTATTTCTCGTGATGGGCCTGAAGGTT | 126
CGTCCTAGTGATTCTCACGTGTTTTCCATGAGGAAG | 1300
TTGTGGCAATCCGACCACGTCTTGTCTTCTTAACTT | 66.2
TCGGAGAAAGCATCTCACGGGGAACAATTGGTTAGA | 89
CGTCCTAGTGATTGTCACCCTACTTCCATGAGGAAG | 74.9
AAATTACTAAGTTGTCACCAGACTTACCCCGTATGA | 101
TTCTGCAGGGCCCGGCCCGGGTCGTCCGGAAAAAGA | 42.9
CAATCTTTGTCTAGCTTCGTGCTTTTTGGCAAAAGC | 79.5
TATACAGCTTTGCCAAGCGTGCGGAATAGGGAATAA | 57.2
TACAGTCGTTGGGCCACCGTGACTCGTATCTGCGTC | 113
CTAACGAAGGTTTGTAGGGTGGGTGACAAGCCAAGT | 61
CTAACGAAGGTTTGTCACAGTACTTACAAGCCAAGT | 90.9
AAACCAGACAAGAGTCAGGTGACGCTGCAGATGAAA | 1200
CCGGTCCTTTGCTGGCACGTGAATTGGATAGTACAT | 1730
TACTGCGCCGGGTGATGCGTGACGGGTTTTTGGAAA | 94.2
TGCGCAACAACTTGTCACTGGACTTTATGTCTAGAA | 86.3
CGACGCACCGAACGATACGGGGCTTGGCTGTTTTAT | 81
ATCAAGGCTGTTCACCACGCATCTGTTCAAATCAAC | 78.6
TGCGCAACAACTTGCGCGGTGGGTGTATGTCTAGAA | 67.4

Set 3 — technique: protein binding microarray; form: double-stranded DNA, one strand shown; sample: in vitro; concentration: not given; relative to: not given; reading: higher = stronger binding
Target: Histone acetyltransferase KAT6A, both winged helices, GST fusion (KAT6A, Homo sapiens, UniProt Q92794, residues 1-181)
Notes: 8-mer, flanks averaged, mean of 2 arrays, mostly near background
Target sequence (chain): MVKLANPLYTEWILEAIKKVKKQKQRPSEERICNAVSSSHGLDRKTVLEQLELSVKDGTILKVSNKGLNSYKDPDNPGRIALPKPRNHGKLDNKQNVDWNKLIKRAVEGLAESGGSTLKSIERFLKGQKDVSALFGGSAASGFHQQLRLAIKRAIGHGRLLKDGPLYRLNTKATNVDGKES
Sequence | E-score
AAGAAGGT | -0.105
CCGGAGCC | 0.0847
CGGAACGC | 0.295
AACCGTTG | 0.037
CTAGTAAG | -0.0865
CTCCTATA | -0.197
CTGGTTAC | -0.0674
AACGGTCT | 0.0516
GCCGTCCA | 0.145
GGGTTTAA | -0.0884
AGTCTCAG | -0.204
CGCTTTGC | 0.18
AATAAATC | -0.0698
GCGATCAA | 0.064
GGCTGACC | -0.0711
AGTAGATA | -0.00179
ATATCACC | 0.0839
ACCCTTAA | -0.13

Set 4 — technique: RNA Bind-n-Seq; form: RNA; sample: in vitro; concentration: 200 nM; notes: whole 134-nt RNA, ends assumed; together with: 150 mM LiCl; relative to: input library; reading: higher = stronger binding; all molecules: 7-deaza-guanosine replaces G
Target: Ras GTPase-activating protein-binding protein 1, full length (G3BP1, Homo sapiens, UniProt Q13283)
Sequence of UniProt Q13283 (whole entry, looked up): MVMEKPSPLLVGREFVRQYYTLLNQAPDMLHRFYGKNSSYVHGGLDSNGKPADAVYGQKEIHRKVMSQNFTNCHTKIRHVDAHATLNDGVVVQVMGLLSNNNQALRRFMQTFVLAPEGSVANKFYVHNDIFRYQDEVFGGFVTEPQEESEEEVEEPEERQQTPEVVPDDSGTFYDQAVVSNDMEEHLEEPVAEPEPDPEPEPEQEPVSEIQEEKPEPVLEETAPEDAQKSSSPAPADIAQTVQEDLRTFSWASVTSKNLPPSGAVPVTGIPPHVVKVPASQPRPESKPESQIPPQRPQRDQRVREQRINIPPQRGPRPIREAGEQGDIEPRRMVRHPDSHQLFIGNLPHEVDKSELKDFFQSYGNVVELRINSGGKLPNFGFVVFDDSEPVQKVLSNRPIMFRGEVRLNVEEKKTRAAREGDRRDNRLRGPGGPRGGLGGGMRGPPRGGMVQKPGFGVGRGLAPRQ
Shared flanks, not repeated: GGGAGUUCUACAGUCCGACGAUC … UGGAAUUCUCGGGUGUCAAGG
Sequence | log2 enrichment
AAUAACUGACGCUGCAUUUAAUUUUUUUGCCAGUUUAAAAUGUUUGUGUGUUUUUAUAGAUGAUUUUAACUGGUACAUAUUUUGAGUUAA | -3.15
CCUGUGCUACACAUCGUAUGUACCGAAUCGGAAAAAAAGGGAAAAAAAGGAAAAAAAGGGGAAAGUAUUAUGUUACGCCGUUCGGAUCUG | 0.0243
UAACUUUAGAGGAGGAUCUGAUGGAUAUGGCAGUGGACGUGGAUUUGGGGAUGGCUAUAAUGGGUAUGGAGGAGGACCUGGAGGUCGCAA | 0.164
UCCUGUGCUACACAUCGUAUGUACCGAAUCGGGCCCCCCGGGGCCCCCCGGCCCCCCGGGAAAGUAUUAUGUUACGCCGUUCGGAUCUGC | -2.07
CCUCAAGUCCUGUGCUACACAUCGUAUGUACCGAAUCGGAGGGGAGGGAGGGGAAAGUAUUAUGUUACGCCGUUCGGAUCUGCACUUCCA | 0.0839
CUCAAGUCCUGUGCUACACAUCGUAUGUACCGAAUCGGGCGGGGCGGGCGGGGAAAGUAUUAUGUUACGCCGUUCGGAUCUGCACUUCCA | -0.0706
ACCAUGCAGGUGGGCAUCCUUGGGAAGUGGGGCAAGGGGGGGAUAGGGAGGGGGGUAACACUUUGGGAACAGGUGGUCCCAGGUCGUUUC | 0.352
UGUGCUACACAUCGUAUGUACCGAAUCGGGGAAAAAAAGGGGUUUUUUUGGGGUUUUUGGGGAAAGUAUUAUGUUACGCCGUUCGGAUCU | -1.88
UCCUGUGCUACACAUCGUAUGUACCGAAUCAAACCCCCCCAAAUUUAAACCCCCCCAAAAAAGUAUUAUGUUACGCCGUUCGGAUCUGCA | 1.23
UCAGAGGAAUAUCCUUGACUUCCCCCAGCAUGUUUCCCCCUCCAAGGACAUCCGGACAGCCAGCACAGAGGCCGACAAGAAGCUCUCUGA | 0.79
CUCAAGUCCUGUGCUACACAUCGUAUGUACCGAAUCGGGGUGGGUGGGUGGGGAAAGUAUUAUGUUACGCCGUUCGGAUCUGCACUUCCA | -1.27

Set 5 — technique: universal PBM; form: double-stranded DNA, one strand shown; sample: in vitro; concentration: 600 nM; reading: higher = stronger binding
Target: Sal-like protein 4, full length isoform A (SALL4, Homo sapiens, UniProt Q9UJQ4, residues 1-1053)
Sequence of UniProt Q9UJQ4 (whole entry, looked up): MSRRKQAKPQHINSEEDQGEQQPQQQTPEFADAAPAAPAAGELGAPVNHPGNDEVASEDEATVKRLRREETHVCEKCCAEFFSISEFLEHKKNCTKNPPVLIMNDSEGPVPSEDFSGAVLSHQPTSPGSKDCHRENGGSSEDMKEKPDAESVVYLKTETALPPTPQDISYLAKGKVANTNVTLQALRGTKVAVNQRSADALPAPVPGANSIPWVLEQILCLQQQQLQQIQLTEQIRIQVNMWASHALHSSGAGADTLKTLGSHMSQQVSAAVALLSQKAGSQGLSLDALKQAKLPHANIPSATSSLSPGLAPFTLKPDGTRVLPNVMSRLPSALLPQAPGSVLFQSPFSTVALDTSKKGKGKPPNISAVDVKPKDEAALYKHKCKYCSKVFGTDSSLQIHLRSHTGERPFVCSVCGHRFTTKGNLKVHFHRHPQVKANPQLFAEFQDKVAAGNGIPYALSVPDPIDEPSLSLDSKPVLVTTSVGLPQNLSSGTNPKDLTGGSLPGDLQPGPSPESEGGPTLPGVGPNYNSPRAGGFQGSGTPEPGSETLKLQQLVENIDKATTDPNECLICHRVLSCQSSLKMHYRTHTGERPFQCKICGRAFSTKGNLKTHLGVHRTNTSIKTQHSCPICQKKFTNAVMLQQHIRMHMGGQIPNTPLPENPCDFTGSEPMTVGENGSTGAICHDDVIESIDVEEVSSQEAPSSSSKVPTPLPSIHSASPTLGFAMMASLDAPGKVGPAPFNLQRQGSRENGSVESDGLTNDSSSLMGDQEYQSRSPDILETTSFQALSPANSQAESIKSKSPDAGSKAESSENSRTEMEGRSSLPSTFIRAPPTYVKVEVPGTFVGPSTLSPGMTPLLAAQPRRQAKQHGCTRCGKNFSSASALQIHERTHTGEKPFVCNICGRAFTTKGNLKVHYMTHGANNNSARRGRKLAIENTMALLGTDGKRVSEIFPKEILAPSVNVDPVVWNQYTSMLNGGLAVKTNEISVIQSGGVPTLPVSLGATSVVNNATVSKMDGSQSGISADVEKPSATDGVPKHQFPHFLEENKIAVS
Notes: 8-mer, flanks averaged, mean of replicates
Sequence | E-score
CAAGGCCC | -0.291
CCGCGAGA | -0.229
AGTTTGAA | 0.214
CACTACAC | 0.00926
TAGCATCA | 0.128
CTCCTGTA | -0.0689
CGGTGAAG | -0.228
AAACTAAG | 0.234
CCAGAGAG | -0.223
ATCTAGTG | 0.13
ACGGGTCG | -0.2
ACCGCCGT | -0.241
CAGCTAGC | -0.239
ATAGCGAC | 0.0156
ACTAAACC | 0.0375
GGTGAACA | 0.00238
AAACACGG | -0.0867
CGGAGAGA | -0.244
GGAGATCC | -0.272
AGGTGCGG | -0.201
GAGGCGCC | -0.369
